Published values of several laboratories.
Each line is one published result; not all experiments were run side by side. Values joined by “and” are separate records of one study, mostly repeats; a detail may differ. ± gives the spread as reported.
TRPM8: Transient receptor potential cation channel subfamily M member 8 (TRPM8, Homo sapiens, UniProt Q7Z2W7)
GAP50: Glideosome-associated protein 50 (GAP50, Plasmodium falciparum, UniProt Q8I2X3)
FFAR4: Free fatty acid receptor 4 (FFAR4, Homo sapiens, UniProt Q5NUL3)
NADH dehydrogenase [ubiquinone] iron-sulfur protein 7, mitochondrial/NADH dehydrogenase [ubiquinone] iron-sulfur protein 2, mitochondrial/MT-ND1: NADH dehydrogenase [ubiquinone] iron-sulfur protein 7, mitochondrial/NADH dehydrogenase [ubiquinone] iron-sulfur protein 2, mitochondrial/MT-ND1 (Homo sapiens, UniProt O75251+O75306+P03886)
Kir3.1/Kir3.2: Kir3.1/Kir3.2 (Homo sapiens, UniProt P48051+P48549)

SMILES	tested on	assay	test system	setting	how to read	measurement	value
Nc1ncnc2c1ncn2[C@@H]1O[C@H](CSCC[C@H](N)C(=O)O)[C@@H](O)[C@H]1O	O-methyltransferase (Sorghum bicolor, UniProt A0A1B6PFV1)	biolayer interferometry		added: saturating PTR		cooperativity factor σ	37.8
C[C@@H](O)[C@@H](CO)NC(=O)[C@@H](CCCNC(=N)N)NC(=O)[C@@H]1CCCN1C(=O)[C@@H]1CSSC[C@H](NC(=O)[C@H](Cc2ccccc2)NC(=O)CN2CCN(CC(=O)O)CCN(CC(=O)O)CCN(CC(=O)O)CC2)C(=O)N[C@@H](Cc2ccc(O)cc2)C(=O)N[C@@H](Cc2ccccc2)C(=O)N[C@@H](CCC(N)=O)C(=O)N[C@@H](CC(N)=O)C(=O)N1 [gallium-68 labelled]	Vasopressin V1b receptor (AVPR1B, Homo sapiens, UniProt P47901)	receptor binding, radioimmunoassay		concentration not given, added: vasopressin V1b 250 nM		binding	43.8% and 46.4% and 42%
Cn1c2ccccc2c2c3c(c4c5ccccc5n(CCC#N)c4c21)CNC3=O	TRPM8	antagonist	HEK293	5 µM	relative to: control	remaining activity	96.1 ± 9.47%
Cc1cnc(CCNC(=O)c2cc(-c3ccc(Cl)cc3)cs2)[nH]1	GAP50	binding, surface plasmon resonance		1:1 binding model		koff	0.723 s⁻¹
CO[C@H]1O[C@H](COS(=O)(=O)O)[C@@H](O[C@@H]2O[C@@H](C(=O)O)[C@@H](O[C@H]3O[C@H](COS(=O)(=O)O)[C@@H](O[C@@H]4O[C@H](C(=O)O)[C@@H](O[C@H]5O[C@H](COS(=O)(=O)O)[C@@H](O)[C@H](O)[C@H]5NS(=O)(=O)O)[C@H](O)[C@H]4O)[C@H](OS(=O)(=O)O)[C@H]3NS(=O)(=O)O)[C@H](O)[C@H]2OS(=O)(=O)O)[C@H](O)[C@H]1NS(=O)(=O)O	Beta-2-glycoprotein 1, domain V (APOH, Homo sapiens, UniProt P02749, V266L)	isothermal titration calorimetry		concentration not given, 298 K, added: 100 mM NaCl		binding stoichiometry	0.96 ± 0.05
CC[C@@H]1[C@H](F)C(=O)N[C@@H]1COc1nccc2cc(C(N)=O)c(OC)cc12	Ribosomal protein S6 kinase alpha-1 (RPS6KA1, Homo sapiens, UniProt Q15418)	ATP probe binding, KiNativ profiling, item: domain 1 activation loop	THP-1 cell lysate	0.01 mM		inhibition	18.6%
O=C(COP(=O)(O)O)[C@@H](O)[C@H](O)[C@H](O)COP(=O)(O)O	PGM1 (Homo sapiens, UniProt P36871)	thermal proteome profiling	HepG2 cell lysate	concentration not given, 57 over 37 °C, mean	relative to: compound over control	thermal stability ratio	4.29
O=Nc1c(NCCCc2ccccc2)[nH]c(=O)[nH]c1=O	FFAR4	agonist, β-arrestin recruitment	CHO cells	10 µM		activation	1 ± 1%
CC[C@H](C)[C@H](NC(=O)[C@H](CO)NC(=O)[C@@H](N)CC(=O)O)C(=O)N[C@@H](CCCNC(=N)N)C(=O)NCC(=O)N[C@@H](Cc1ccccc1)C(=O)N[C@@H](CC(C)C)C(=O)N[C@H](C(=O)N[C@@H](CCCNC(=N)N)C(=O)N1CCC[C@H]1C(=O)N[C@H](C(=O)N[C@@H](CCCNC(=N)N)C(=O)N[C@H](C(=O)N[C@H](C(=O)N[C@@H](Cc1c[nH]cn1)C(=O)N[C@@H](Cc1ccc(O)cc1)C(=O)N[C@@H](Cc1ccc(O)cc1)C(=O)N[C@@H](Cc1c[nH]c2ccccc12)C(=O)N[C@@H](CCCNC(=N)N)C(=O)N[C@@H](CCC(N)=O)C(=O)N[C@@H](Cc1ccccc1)C(=O)N[C@@H](CC(=O)O)C(=O)N[C@@H](CC(=O)O)C(=O)N[C@@H](CO)C(=O)N[C@@H](Cc1ccccc1)C(=O)N[C@@H](CCSC)C(=O)N[C@@H](CCCNC(=N)N)C(=O)N1CCC[C@H]1C(=O)N[C@H](C(=O)N[C@@H](Cc1ccccc1)C(=O)NCC(=O)NCC(=O)N[C@@H](CCCNC(=N)N)C(=O)O)C(C)C)C(C)C)[C@@H](C)O)[C@@H](C)O)[C@@H](C)O	Probable calcium-binding protein CML18 (CML18, Arabidopsis thaliana, UniProt Q9M8U1)	isothermal titration calorimetry		concentration not given, pH 6.3, 25 °C, added: 18 µM EGTA		binding enthalpy (ΔH1)	-4.28 ± 0.112 kcal/mol
Nc1ncnc2c1ncn2[C@@H]1O[C@H](COP(=O)(O)CP(=O)(O)OP(=O)(O)O)[C@@H](O)[C@H]1O	P2X purinoceptor 1 (P2RX1, Homo sapiens, UniProt P51575, R139P)	calcium influx		10 nM	relative to: ionomycin response	calcium influx	0% and 1.13% and 0.679%
Nc1nc2ccccc2[nH]1	Voltage-gated hydrogen channel 1 (HVCN1, Homo sapiens, UniProt Q96D96)	proton current, inhibitor, inside-out patch clamp	Xenopus oocytes	dimeric channel		Hill coefficient	1.05 ± 0.09
COc1cc(O)c(CC=C(C)C)c(O)c1C(=O)/C=C/c1ccc(O)cc1	Thyroxine 5-deiodinase (DIO3, Homo sapiens, UniProt P55073)	biochemical				Hill slope	-0.87 and -0.84 and -0.91
O=Nc1c(-c2c(O)[nH]c3cc(Br)ccc23)[nH]c2ccccc12	TRPM8	antagonist	HEK293	5 µM	relative to: control	remaining activity	99.1 ± 3.19%
Cc1nc(CSc2nc(SCc3ccc(C(C)C)cc3)nc(=O)[nH]2)cs1	DNA topoisomerase 2-alpha (TOP2A, Homo sapiens, UniProt P11388)	decatenation		7.8 µM, replicate 2		decatenated DNA	45.5%
NC(=O)NOCCCCCCCCCCCCCCCC[P+](c1ccccc1)(c1ccccc1)c1ccccc1.O=C([O-])C(F)(F)F	NADH dehydrogenase [ubiquinone] iron-sulfur protein 7, mitochondrial/NADH dehydrogenase [ubiquinone] iron-sulfur protein 2, mitochondrial/MT-ND1	complex I-dependent respiration, Seahorse XF96	HCT-116	0.6 µM, 24 h	relative to: control	oxygen consumption rate	59.7 ± 6.65%
CCN1CCN(c2cc(N3CCN(CC)CC3)nc(NCCNc3ccnc4cc(Cl)ccc34)n2)CC1	Nuclear receptor subfamily 4 group A member 2, LBD (Homo sapiens, UniProt P43354)	reporter gene, Gal4 hybrid reporter		1 µM	relative to: vehicle	activation	1.18 ± 0.05 fold
OCC1CN(Cc2ccccc2)CC12CCN(CC1CCCCC1)CC2 (stereo not shown)	Prelamin-A/C, isoform A (Homo sapiens, UniProt P02545)	CETSA	A549	100 µM, 24 h		delta Tm	2.64 °C
O=C(COc1ccc(C(F)(F)F)cc1C(F)(F)F)Nc1cc(C2CC2)nn1C1CCOCC1	Kir3.1/Kir3.2	thallium flux, activator	HEK293		relative to: standard compound	Emax	79%
O=C(O)C1CCCCN1 (stereo not shown)	uncharacterized protein (Pelagibacter ubique, UniProt Q4FKZ8)	differential scanning fluorimetry	Candidatus Pelagibacter ubique	in-house screen		thermal shift	11.5 °C
O=c1cc(NCc2cccc3ccccc23)[nH]c(=O)[nH]1	FFAR4	antagonist, β-arrestin recruitment	CHO cells	10 µM, added: 4 µM TUG-891		inhibition	5 ± 16%
NCCN(C(=O)c1ccc(Cl)cc1Cl)c1ccc(OCc2ccc(Cl)cc2)cc1	GAP50	binding, surface plasmon resonance		1:1 binding model		kon	1860 M⁻¹ s⁻¹
Nc1ncnc2c1ncn2[C@@H]1O[C@H](COP(=O)(O)OP(=O)(O)OP(=O)(O)O)[C@@H](O)[C@H]1O	rat Ca2+-activated nonselective cation channel			one-subunit noncompetitive model		mutual destabilization factor ξ	203

SMILES	tested on	assay	test system	setting	how to read	measurement	value
COc1ccc(F)cc1C(=O)NCc1ccc(-c2nn([C@@H](C)C(F)(F)F)c(N)c2C(N)=O)cc1	Tyrosine-protein kinase BTK (BTK, Homo sapiens, UniProt Q06187)	surface plasmon resonance				dissociation half-life	2.4 h
Cn1cc(-c2ccc(-c3cncc(Cl)c3N3CCC4(CCNC4=O)CC3)cc2)cn1	COLO 205	gene expression, microarray, item: SKP2 mRNA		concentration not given, 6 h	relative to: untreated cells	log2 fold change	-2.05
C[C@@H](c1ccc(-n2cnc3c(N)ncnc32)cc1)N1CCc2nn(C)c(Cc3ccccc3)c2C1=O	Mitogen-activated protein kinase kinase kinase 12 (MAP3K12, Homo sapiens, UniProt Q12852)	KINOMEscan		0.1 µM	relative to: DMSO control	remaining binding	82%
Cc1cc2c(c(=O)[nH]1)C(=O)O/C2=C\c1cc(Br)ccc1OC(C)C	Dual specificity calcium/calmodulin-dependent 3',5'-cyclic nucleotide phosphodiesterase 1C, isoform PDE1C2 (PDE1C, Homo sapiens, UniProt Q14123)	enzyme activity, inhibitor		added: 3H-cGMP substrate		binding free energy	-9.43 kcal/mol
NC(=O)NOCCCCCCCCCCCCCCCCCCCC[P+](c1ccccc1)(c1ccccc1)c1ccccc1.O=C([O-])C(F)(F)F	NADH dehydrogenase [ubiquinone] iron-sulfur protein 7, mitochondrial/NADH dehydrogenase [ubiquinone] iron-sulfur protein 2, mitochondrial/MT-ND1	complex I-dependent respiration, Seahorse XF96	HCT-116	0.03 µM, 24 h	relative to: control	oxygen consumption rate	94.6 ± 11.4%
CC(C)(C)c1cc(C(=O)Nc2cccnc2)cc(C(=O)Nc2cccnc2)c1	GAP50	binding, surface plasmon resonance		1:1 binding model		kon	17200 M⁻¹ s⁻¹
CO[C@@H](C(=O)N1Cc2c(-c3ccc(C(=O)N4CCCc5ccccc54)cc3)cnn2C[C@H]1C(C)C)c1cnn(C)c1 (single isomer, unassigned)	E3 ubiquitin-protein ligase parkin (PRKN, Human, UniProt O60260)	nanoDSF		200 µM	relative to: DMSO	ΔTm	-1.7 °C
C=CC(=O)N1CCC(COCC(=O)N2CCN(c3nc(-c4cnc(N)nc4C(F)F)nc(N4CCOC[C@@H]4C)n3)CC2)CC1	Serine/threonine-protein kinase PLK3 (PLK3, Homo sapiens, UniProt Q9H4B4)	KINOMEscan		1 µM		remaining binding	100%
O=c1cc(NCCc2c[nH]c3ccccc23)[nH]c(=O)[nH]1	FFAR4	agonist, β-arrestin recruitment	CHO cells	10 µM	relative to: 30 µM TUG-891	agonist effect	1%
COc1cc(F)ccc1-c1ncnc(Nc2cccc(C[S@](C)(=N)=O)c2)n1	Serine/threonine-protein kinase WNK2 (WNK2, Homo sapiens, UniProt Q9Y3S1)	kinase activity		10 µM, added: 10 µM ATP		remaining activity	82%
Cc1cncc2cccc(S(=O)(=O)N3CCCN(C(=O)CN)C[C@@H]3C)c12	TRPM8	antagonist	HEK293	5 µM	relative to: control	remaining activity	90.6 ± 6.56%
Oc1ccccc1-c1n[nH]cc1-c1ccnc2ccccc12	Serine/threonine-protein kinase PKH2 (Candida albicans, UniProt Q5A3P6)	kinase binding, MIB/MS competition	Candida albicans lysate	1 µM	relative to: DMSO, negative = stronger binding	log2 fold change	0.04
Nc1nc2c(ncn2[C@@H]2O[C@H](COP(=O)(O)O)[C@@H](O)[C@H]2O)c(=O)[nH]1	GUK1 (Homo sapiens, UniProt Q16774)	enzyme activity, NADH-coupled		7.812 µM, added: NaCl 150 mM		reaction velocity	0.0218 µM/s and -0.0209 µM/s and 0.0145 µM/s
NC(=O)NOCCCCCCCCCCCC[P+](c1ccccc1)(c1ccccc1)c1ccccc1.O=C([O-])C(F)(F)F	NADH dehydrogenase [ubiquinone] iron-sulfur protein 7, mitochondrial/NADH dehydrogenase [ubiquinone] iron-sulfur protein 2, mitochondrial/MT-ND1	complex I-dependent respiration, Seahorse XF96	HCT-116	7.5 µM, 24 h	relative to: control	oxygen consumption rate	2.39 ± 1.86%
O=C(COc1ccc(C(F)(F)F)cc1C(F)(F)F)Nc1cc(C2CC2)nn1C1CCC(F)(F)CC1	Kir3.1/Kir3.2	thallium flux, activator	HEK293		relative to: standard compound	Emax	39%
Oc1c(F)cc(C(c2cc(F)c(O)c(F)c2)(C(F)(F)F)C(F)(F)F)cc1F	Sarcoplasmic/endoplasmic reticulum calcium ATPase 1 (ATP2A1, Oryctolagus cuniculus, UniProt P04191)	ATPase activity, inhibitor, PK/LDH coupled		concentration not given		activity	active
O=C(c1ccc(CNCCCN2CCN(c3ccc(F)cc3)CC2)cc1)c1ccc([N+](=O)[O-])cc1	Sigma intracellular receptor 2 (TMEM97, Homo sapiens, UniProt Q5BJF2)	radioligand binding	RT-4 cell membranes		relative to: sigma1 over sigma2 receptor	selectivity ratio	70 fold
NS(=O)(=O)c1ccc(Nc2nc(-c3ccc(F)cc3F)cs2)cc1	3-oxoacyl-[acyl-carrier-protein] reductase FabG (fabG, Pseudomonas aeruginosa, UniProt O54438)	enzyme activity, inhibitor, NADPH fluorescence		reverse reaction, added: 3-OH-decanoyl-NAC, NADP		Hill slope	1.4
CCc1cc(NC(=O)COc2cc(Cl)ccc2Cl)n(C2CCC(F)(F)CC2)n1	Kir3.1/Kir3.2	thallium flux, activator	HEK293		relative to: standard compound	Emax	84%
NCCCCC(=O)O	Sodium- and chloride-dependent taurine transporter (SLC6A6, Homo sapiens, UniProt P31641, G62A)	binding, microscale thermophoresis		62.5 µM, room temperature, added: 50 nM labelled protein	higher = more binding	normalised MST signal	-0.0265
O=c1cc(NCCc2ccc(F)cc2)[nH]c(=O)[nH]1	FFAR4	antagonist, β-arrestin recruitment	CHO cells	10 µM		inhibition	11 ± 3%

Some of these lines once more:
SMILES	tested on	assay	test system	setting	how to read	measurement	value
C=CC(=O)N1CCC(COCC(=O)N2CCN(c3nc(-c4cnc(N)nc4C(F)F)nc(N4CCOC[C@@H]4C)n3)CC2)CC1	Serine/threonine-protein kinase PLK3 (PLK3, Homo sapiens, UniProt Q9H4B4)	KINOMEscan		1 µM		remaining binding	100%
O=c1cc(NCCc2c[nH]c3ccccc23)[nH]c(=O)[nH]1	FFAR4	agonist, β-arrestin recruitment	CHO cells	10 µM	relative to: 30 µM TUG-891	agonist effect	1%
COc1cc(F)ccc1-c1ncnc(Nc2cccc(C[S@](C)(=N)=O)c2)n1	Serine/threonine-protein kinase WNK2 (WNK2, Homo sapiens, UniProt Q9Y3S1)	kinase activity		10 µM, added: 10 µM ATP		remaining activity	82%
